Results of several laboratories.
Parts stem from different laboratories: compare values within a part only.

Set 1
Target: Replicase polyprotein 1ab, polymerase (rep, Severe acute respiratory syndrome coronavirus 2, UniProt P0DTD1)
Read-out: enzyme activity
Mode: inhibitor
Tested at: 20 µM
Quantity: inhibition
CCCNC(C)C(=O)Nc1ccccc1C (stereo not drawn): 1.93%
CCOC(=O)C1=C(C)NC(=S)NC1c1cccc(O)c1 (stereo not drawn): -7.43%
CC(=O)Oc1cc2c(s1)CCN(C(C(=O)C1CC1)c1ccccc1F)C2 (stereo not drawn): -6.14%
CC(=O)N(O)C/C=C/c1cccc(Oc2ccccc2)c1: -2.52%
Cc1cc(C)c(CNC(=O)c2cc(-c3ccc(CN4CCOCC4)cc3)cc3c2cnn3C2CCCC2)c(=O)[nH]1: -4.58%
CC(C)(C)c1ccc(CN2CCN(C(c3ccccc3)c3ccc(Cl)cc3)CC2)cc1 (stereo not drawn): -2.87%
CC(C)CC(=O)N[C@H](C(=O)N[C@H](C(=O)N[C@@H](CC(C)C)[C@@H](O)CC(=O)N[C@@H](C)C(=O)N[C@@H](CC(C)C)[C@@H](O)CC(=O)O)C(C)C)C(C)C: 2.84%
CS(=O)(=O)Nc1cc2occ(NC=O)c(=O)c2cc1Oc1ccccc1: -5.13%
CN1CCN(c2cc3c(cc2F)c(=O)c(C(=O)O)cn3-c2ccc(F)cc2)CC1: 3.09%
COC(=O)CCSCc1ccc(-c2onc(C)c2NC(=O)OC(C)c2ccccc2Cl)cc1 (stereo not drawn): 0.23%
CO[C@H]1C[C@H](O[C@H]2[C@H](C)O[C@@H](O[C@@H]3/C(C)=C/C[C@@H]4C[C@@H](C[C@]5(C=C[C@H](C)[C@@H](C6CCCCC6)O5)O4)OC(=O)[C@@H]4C=C(C)[C@@H](O)[C@H]5OC/C(=C\C=C\[C@@H]3C)[C@]54O)C[C@@H]2OC)O[C@@H](C)[C@@H]1O: -0.85%
O=C(O)Cn1c(C(=O)Nc2nc(-c3ccccc3Cl)cs2)cc2ccccc21: 4.22%
CCC(COC(=O)c1cc(OC)c(OC)c(OC)c1)(c1ccccc1)N(C)C (stereo not drawn): -19%
CC(C)(C)OC(=O)N[C@H]1CCCCC/C=C\[C@@H]2C[C@@]2(C(=O)NS(=O)(=O)C2CC2)NC(=O)[C@@H]2C[C@@H](OC(=O)N3Cc4cccc(F)c4C3)CN2C1=O: -4.41%
CC[N+](C)(CC)CC(=O)Nc1c(C)cccc1C: 2.06%
NC1CCN(c2cccc(Cl)n2)CC1: 4.84%
C[C@@H](c1ccc2nccn2c1)n1nnc2ncc(-c3cnn(C)c3)nc21: 7.27%
Nc1nc(N)nc(NC2CC2)n1: -5.94%
NC(=O)CC[C@H](N)C(=O)O: -2.24%
COc1ccc2cccc(CCNC(C)=O)c2c1: 9.62%
COC(=O)Nc1nc2cc(C(=O)c3ccccc3)ccc2[nH]1: 16.4%
O=S(=O)(NCC1CC1)c1ccc(Nc2nccc(N3CCCc4cc(O)ccc43)n2)cc1: 2.59%
C[N+](C)(C)CC[N+]1(C)Cc2c(Cl)c(Cl)c(Cl)c(Cl)c2C1: 1.11%
CCCCCCCC/C=C\CCCCCCCC(N)=O: 6.11%
CCCCc1nc(Cl)c(C(=O)O)n1Cc1ccc(-c2ccccc2-c2nn[nH]n2)cc1: 5.65%

Set 2
Target: Histone acetyltransferase KAT6A, winged helix 2, GST fusion (KAT6A, Homo sapiens, UniProt Q92794, residues 85-181)
Method: protein binding microarray
Molecule type: double-stranded DNA, one strand shown
Matrix: in vitro
Tested at: not given
Notes: 8-mer, flanks averaged, mean of 2 arrays, mostly near background
Relative to: not given
Reading: higher = stronger binding
Quantity: E-score
Target sequence (chain): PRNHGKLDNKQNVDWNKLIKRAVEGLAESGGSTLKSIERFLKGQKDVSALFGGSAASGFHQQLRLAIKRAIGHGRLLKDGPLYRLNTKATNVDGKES
CGAACATA: 0.0382
ATCCGTGC: 0.0903
GAACTACC: -0.129
CGATGGAA: 0.0377
ATACACAA: -0.019
CTCGCCAC: 0.1
CTACAAGC: -0.0915
ATTTGCTG: 0.163

Set 3
Target: Sal-like protein 4, full length isoform A (SALL4, Homo sapiens, UniProt Q9UJQ4, residues 1-1053)
Sequence of UniProt Q9UJQ4 (whole entry, looked up): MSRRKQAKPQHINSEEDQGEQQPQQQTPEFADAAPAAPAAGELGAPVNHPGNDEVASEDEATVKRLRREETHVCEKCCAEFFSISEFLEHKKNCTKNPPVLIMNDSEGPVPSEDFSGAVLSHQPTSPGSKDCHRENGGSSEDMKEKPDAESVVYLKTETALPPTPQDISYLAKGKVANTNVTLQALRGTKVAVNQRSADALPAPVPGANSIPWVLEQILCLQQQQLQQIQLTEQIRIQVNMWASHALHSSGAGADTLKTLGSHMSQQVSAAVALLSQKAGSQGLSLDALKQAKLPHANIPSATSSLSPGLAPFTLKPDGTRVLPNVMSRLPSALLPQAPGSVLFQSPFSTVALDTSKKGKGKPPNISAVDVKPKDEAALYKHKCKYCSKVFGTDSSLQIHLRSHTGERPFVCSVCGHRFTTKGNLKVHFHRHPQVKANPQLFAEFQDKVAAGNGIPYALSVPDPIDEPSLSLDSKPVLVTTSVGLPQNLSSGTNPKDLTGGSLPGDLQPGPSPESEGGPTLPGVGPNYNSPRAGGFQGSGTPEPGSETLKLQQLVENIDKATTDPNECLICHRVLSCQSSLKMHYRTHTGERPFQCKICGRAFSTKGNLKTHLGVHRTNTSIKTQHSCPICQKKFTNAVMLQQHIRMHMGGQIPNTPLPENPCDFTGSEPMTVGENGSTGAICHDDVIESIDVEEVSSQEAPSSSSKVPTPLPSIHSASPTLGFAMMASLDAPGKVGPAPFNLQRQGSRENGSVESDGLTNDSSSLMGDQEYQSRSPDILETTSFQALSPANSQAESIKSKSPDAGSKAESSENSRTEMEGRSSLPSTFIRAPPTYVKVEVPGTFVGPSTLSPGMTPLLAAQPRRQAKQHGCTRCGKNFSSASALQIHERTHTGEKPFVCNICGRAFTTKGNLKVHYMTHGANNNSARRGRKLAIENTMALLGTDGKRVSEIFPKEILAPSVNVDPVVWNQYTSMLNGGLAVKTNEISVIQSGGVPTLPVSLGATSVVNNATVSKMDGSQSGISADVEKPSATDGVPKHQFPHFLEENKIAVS
Method: universal PBM
Molecule type: double-stranded DNA, one strand shown
Matrix: in vitro
Tested at: 600 nM
Notes: 8-mer, flanks averaged, mean of replicates
Reading: higher = stronger binding
Quantity: E-score
CCGAAGTA: 0.0199
CACGGCCG: -0.147
CGGGTCCA: -0.346
GAGACTCA: -0.0264
GGCCAGAC: -0.252
ACTCTACA: -0.0605
CCTTAGCA: -0.0486
CGTTCGGA: -0.205

Set 4
Target: Interferon regulatory factor 7, full length, phosphomimetic (IRF7, Homo sapiens, UniProt Q92985, residues 1-503, S101K/S471D/S472D/S475D/S476D/S477D/S483D/S484D/S487D)
Sequence of UniProt Q92985 (whole entry, unmodified, looked up): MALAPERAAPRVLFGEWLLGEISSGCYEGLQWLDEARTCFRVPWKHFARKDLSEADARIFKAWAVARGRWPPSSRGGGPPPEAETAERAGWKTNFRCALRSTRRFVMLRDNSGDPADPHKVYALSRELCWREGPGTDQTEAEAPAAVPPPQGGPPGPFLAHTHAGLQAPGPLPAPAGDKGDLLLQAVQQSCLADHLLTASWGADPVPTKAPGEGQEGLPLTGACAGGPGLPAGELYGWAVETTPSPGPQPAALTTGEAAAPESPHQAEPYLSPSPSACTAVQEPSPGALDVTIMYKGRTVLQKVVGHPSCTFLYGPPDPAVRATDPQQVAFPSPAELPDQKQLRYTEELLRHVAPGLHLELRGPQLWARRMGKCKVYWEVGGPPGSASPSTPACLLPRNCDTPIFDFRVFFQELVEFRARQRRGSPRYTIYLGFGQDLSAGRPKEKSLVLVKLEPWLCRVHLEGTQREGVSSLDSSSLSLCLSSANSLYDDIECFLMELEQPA
Method: protein-binding microarray
Molecule type: double-stranded DNA, one strand shown
Matrix: in vitro
Tested at: 250 nM
Notes: 60-bp whole probe
Together with: salmon DNA 0.4 mg/ml
Relative to: random background probes
Reading: higher = stronger binding
Quantity: log fluorescence
Constant ends, left off below: GCCTAGCAC … GTCTTGATTCGCTTGACGCTGCTG
GTAGAACTGGGGACTGGATTAGTGCTA: -0.495 z-score
TTAGGTATCGGTCTCGGTCAGTGCTAG: 1.13 z-score
TTAGATCTCAGTATCGATTCGTGCTAG: 2.73 z-score
GACGGTCACCTTATCCTGACGTGCTAG: -0.0847 z-score
TCATGTTTGTCCCTATTACTGTGCTAG: 1.17 z-score
GGTCCCACCTCTTGGTGGGAGTGCTAG: 0.958 z-score
TTAGAACTGAGACTGGCTTAGTGCTAG: -0.483 z-score
TTTTTTTTTACTTCGGGTGAGTGCTAG: 0.8 z-score

Other studies, line by line
N[C@@H](C(=O)N[C@@H]1C(=O)N2C(C(=O)O)=C(Cl)CS[C@H]12)c1ccccc1 — GFP-positive cells (HEK-293T; pseudovirus infection, FDA-approved drug library screen; VSV pseudotyped with SARS-CoV-2 spike; 10 µM, 16 h; relative to: vehicle-treated): 82.2%
COc1c(N2CCNC(C)C2)c(F)cc2c(=O)c(C(=O)O)cn(C3CC3)c12 (stereo not drawn) — viability (HEK-293T/ACE2; concentration not given, 16 (unit not given); relative to: vehicle): 97.9%
